Assay results gathered from unrelated publications.
A part holds a random share of what one study measured.

Series 1 — technique: protein binding microarray; form: double-stranded DNA, one strand shown; matrix: in vitro; concentration: not given; relative to: not given; direction: higher = stronger binding
Target: Histone acetyltransferase KAT6A, both winged helices, GST fusion (KAT6A, Homo sapiens, UniProt Q92794, residues 1-181)
Notes: 8-mer, flanks averaged, mean of 2 arrays, mostly near background
Residues (chain): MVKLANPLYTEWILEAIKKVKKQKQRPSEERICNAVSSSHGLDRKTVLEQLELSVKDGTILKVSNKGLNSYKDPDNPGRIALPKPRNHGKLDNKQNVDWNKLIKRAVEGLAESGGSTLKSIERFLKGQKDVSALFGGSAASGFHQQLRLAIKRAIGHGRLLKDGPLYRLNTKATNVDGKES
With `AGCACTCA` the E-score was -0.164.
With `GAGTATAA` the E-score was -0.00369.
`GTCCCCAA` gave an E-score of -0.105.
The E-score of `TAGCTATA` is reported as -0.199.
With `AGAACAAA` the E-score was 0.0343.
For `TACAGACA`, the E-score was -0.142.
The E-score of `CTCGACCA` is reported as -0.18.
For `TACTGACA`, the E-score was -0.134.
The E-score of `ATATGTAG` is reported as -0.149.
For `CGCCGGCC`, the E-score was 0.358.
`CAATGCCA` has an E-score of -0.15.
For `CGTCCCCA`, the E-score was 0.0192.
The E-score of `CCAAGTTC` is reported as -0.0921.
For `CCTGATAC`, the E-score was -0.115.
`ATCCGCAT` gave an E-score of 0.182.
With `AGTCTATC` the E-score was -0.0946.
`ATCTCACA` gave an E-score of -0.033.
The E-score of `ACAGGAGA` is reported as -0.17.
`CAGCAGGG` gave an E-score of -0.0935.
For `AAATCCGA`, the E-score was 0.027.
For `AAGTATCG`, the E-score was -0.0437.
`TCGACCGA` gave an E-score of 0.129.

Series 2 — technique: universal PBM; form: double-stranded DNA, one strand shown; matrix: in vitro; concentration: not given; direction: higher = stronger binding
Target: Sal-like protein 4, full length isoform B (SALL4, Homo sapiens, UniProt Q9UJQ4-2, residues 1-616)
Notes: 8-mer, flanks averaged, mean of replicates
Construct (chain): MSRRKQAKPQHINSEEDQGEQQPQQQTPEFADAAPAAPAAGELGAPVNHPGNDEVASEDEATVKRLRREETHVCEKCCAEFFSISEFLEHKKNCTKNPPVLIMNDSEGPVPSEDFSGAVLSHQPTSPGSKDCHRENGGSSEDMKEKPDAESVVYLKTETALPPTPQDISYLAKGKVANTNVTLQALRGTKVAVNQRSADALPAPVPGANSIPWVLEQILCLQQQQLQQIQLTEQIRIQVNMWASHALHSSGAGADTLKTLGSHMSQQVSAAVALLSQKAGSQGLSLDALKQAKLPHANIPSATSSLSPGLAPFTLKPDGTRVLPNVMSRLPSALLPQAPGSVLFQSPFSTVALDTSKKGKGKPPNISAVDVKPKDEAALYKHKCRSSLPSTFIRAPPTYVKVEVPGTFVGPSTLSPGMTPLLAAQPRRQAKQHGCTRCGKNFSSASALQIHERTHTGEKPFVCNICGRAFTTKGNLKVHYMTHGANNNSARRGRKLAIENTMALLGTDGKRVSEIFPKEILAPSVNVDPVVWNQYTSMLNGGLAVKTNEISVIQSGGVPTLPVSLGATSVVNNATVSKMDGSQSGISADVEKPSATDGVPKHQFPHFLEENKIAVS
The E-score of `AGGTCCCA` is reported as -0.126.
With `CCAACTGC` the E-score was -0.245.
The E-score of `AAGCCCTG` is reported as -0.242.
`TAAATCGA` gave an E-score of 0.209.
`AGACTTCG` gave an E-score of -0.0834.
The E-score of `AAAGTGTG` is reported as 0.0386.
For `ATCAAAAC`, the E-score was 0.19.
`AATAAGAA` gave an E-score of 0.296.
The E-score of `AAGTGTGT` is reported as 0.152.
For `AAAATCTG`, the E-score was 0.0981.
`GGATTACA` has an E-score of 0.15.
For `AAGGCGGT`, the E-score was -0.119.
With `ATCCCAGC` the E-score was -0.14.
With `GGGTCAAC` the E-score was -0.171.
The E-score of `ATAACAGA` is reported as 0.309.
`GCAACCCC` gave an E-score of -0.269.

Series 3 — technique: protein-binding microarray; form: double-stranded DNA, one strand shown; matrix: in vitro; concentration: 0.8 µM; notes: whole 60-bp probe, no competitor; direction: higher = stronger binding
Target: Centromere-binding protein 1, full length, N-terminal tag (CBF1, Saccharomyces cerevisiae, UniProt P17106, residues 1-351)
UniProt P17106, sequence (whole entry, looked up): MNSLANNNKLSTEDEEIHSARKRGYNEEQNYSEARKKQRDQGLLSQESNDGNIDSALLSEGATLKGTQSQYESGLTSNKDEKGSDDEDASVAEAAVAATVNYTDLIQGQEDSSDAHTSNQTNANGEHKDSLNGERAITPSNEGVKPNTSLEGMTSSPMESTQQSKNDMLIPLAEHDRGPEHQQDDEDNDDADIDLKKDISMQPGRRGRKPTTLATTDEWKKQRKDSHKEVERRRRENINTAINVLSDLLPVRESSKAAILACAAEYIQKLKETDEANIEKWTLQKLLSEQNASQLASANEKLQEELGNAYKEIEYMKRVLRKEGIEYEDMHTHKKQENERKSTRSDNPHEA
`CTAAGATATGTTACTCACGCGTCGCGTCGCTCCTTCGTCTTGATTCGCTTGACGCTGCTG` gave a fluorescence intensity of 566 a.u.
`GAAAGGTTTATATTCGACGTGATTTTTTTTTCTTAGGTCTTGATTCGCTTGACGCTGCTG` has a fluorescence intensity of 611 a.u.
`CCTAACTACTATATACACGTTTCATAGCTTCGTACAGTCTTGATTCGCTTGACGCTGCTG` gave a fluorescence intensity of 588 a.u.
`CTAAAAACGAAGTGACACGTAATTTCAAATTTATTCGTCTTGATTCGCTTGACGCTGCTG` gave a fluorescence intensity of 504 a.u.
With `GAAATCAGCTTGATTCACGGGATCTTACTTATCTAGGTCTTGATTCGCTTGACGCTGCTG` the fluorescence intensity was 733 a.u.
The fluorescence intensity of `GAAAGAAAAGAATGCACCACCATTATGCCTAAGTAGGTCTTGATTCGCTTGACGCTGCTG` is reported as 503 a.u.
For `GAAGATGTTATAAATCACGGAATTAAGAGAAGGTAGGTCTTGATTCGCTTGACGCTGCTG`, the fluorescence intensity was 562 a.u.
`GAAAAATTTTTTCATGTGATTTTTTCCAGACGTTAGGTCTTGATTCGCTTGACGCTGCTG` has a fluorescence intensity of 1200 a.u.
For `GAATCAAGTTTGCCTCTGATGCTGTGCGAGCTCTAGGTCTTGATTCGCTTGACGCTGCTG`, the fluorescence intensity was 500 a.u.
For `GAAATCCCCCTTACAAGCGTGCTCCTTTTCCTTTAGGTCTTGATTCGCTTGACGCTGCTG`, the fluorescence intensity was 509 a.u.
`CTAGTGATAACCTAAAATAGTCACAAACCAATGTTCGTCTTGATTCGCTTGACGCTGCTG` has a fluorescence intensity of 585 a.u.
With `GAAAGCAACAATACTAACGTGGAACTTATTTCGTAGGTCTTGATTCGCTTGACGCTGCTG` the fluorescence intensity was 516 a.u.
With `CTAGGGCCGTCCACTCATGTGATTTTCAACAAATTCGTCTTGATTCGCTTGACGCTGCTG` the fluorescence intensity was 1040 a.u.
For `TGTACGAAGCTATTGCATGAGGTTATAGTAGTTAGGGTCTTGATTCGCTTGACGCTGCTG`, the fluorescence intensity was 505 a.u.
With `CTAAAAAAAAGGCACCACGTGACTAGAGAATCATTCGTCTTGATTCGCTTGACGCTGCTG` the fluorescence intensity was 20000 a.u.
`CTAAGCTAGATTCATCATCACTACTTGAAGGGGTTCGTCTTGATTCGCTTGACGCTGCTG` gave a fluorescence intensity of 516 a.u.
With `CTATTACAATGAATACATGTGATATAGATACTTTTCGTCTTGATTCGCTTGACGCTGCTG` the fluorescence intensity was 1880 a.u.
`GAATTCTTTTACAGTTATGTGATCATCAAGAACTAGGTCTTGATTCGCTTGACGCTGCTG` gave a fluorescence intensity of 594 a.u.
`GAAGTGCTGGTTCGTGACGTGTAAATTCAGAATTAGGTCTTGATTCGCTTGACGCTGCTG` gave a fluorescence intensity of 938 a.u.
`CTATCGAGATCACTTTTCGTGATCCGCTAATCATTCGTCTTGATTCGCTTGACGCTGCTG` has a fluorescence intensity of 728 a.u.
For `CTATTGGCGACGCGTCACCTGGGACGGGAATTTTTCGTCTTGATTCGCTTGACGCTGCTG`, the fluorescence intensity was 722 a.u.
The fluorescence intensity of `GAAAAGGGTAGGAGTCACATCAGGTGTTTGTTGTAGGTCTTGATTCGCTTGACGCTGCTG` is reported as 790 a.u.
For `GAAAAATTAGTAAATGGTAACGTGAAAGAAGTATAGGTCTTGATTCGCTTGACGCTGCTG`, the fluorescence intensity was 779 a.u.
With `GAAAGACATATGATAAAGCTGATGTCTATTTTGTAGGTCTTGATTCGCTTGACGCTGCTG` the fluorescence intensity was 523 a.u.
For `CTAGCATATCAAAATCACGTATTGACTATGACATTCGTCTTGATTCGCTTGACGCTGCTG`, the fluorescence intensity was 617 a.u.

Series 4 — technique: RNA Bind-n-Seq; form: RNA; matrix: in vitro; concentration: 365 nM; relative to: no-protein control; direction: higher = stronger binding
Target: RNA binding protein fox-1 homolog 2, RRM domain, GST-SBP tag (RBFOX2, Homo sapiens, UniProt O43251-10, residues 100-194)
Notes: natural RNA segment, single round, ends assumed
Target sequence (chain): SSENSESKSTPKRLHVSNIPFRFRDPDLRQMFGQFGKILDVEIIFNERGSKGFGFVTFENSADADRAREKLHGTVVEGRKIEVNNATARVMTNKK
Under “RBNS enrichment (R)”, `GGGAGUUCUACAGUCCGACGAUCUCAUAGUGGUAAAUAAUGUAGAUUAUAUAUAUACAUAUAUAUAUAUAUAUAUGCUAUAUAUGGACACACUAUUUUCUUAUGUCAUCUAUGGCAUUUUUUUAUCUGUAUACUGGAAUUCUCGGGUGCCAA` is recorded as 1.34.
`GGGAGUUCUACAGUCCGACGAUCAGAACCAUUUUUAUGUAAUCUGAUUUGAAUGUUAUAGUUGAUAAUAAUAAAAUCACUUACUUGGUUGCUAUUUAGUGUUGCAUUUAAUGAUAAAAAACAGACCCUGUGUAUGGAAUUCUCGGGUGCCAA` — result for “RBNS enrichment (R)”: 1.25.
`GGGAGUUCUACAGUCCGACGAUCGCCUGAAUGUGAAACAUUCCUCCUUUUUUCUUCCAUAAAUAAUUUGUUUGCUUCCCAAAGAUGUAUGUUUUGGAAAAAAAUUGCCUGUAGUCUGGUUGUGAAGAACACUGUGGAAUUCUCGGGUGCCAA` — result for “RBNS enrichment (R)”: 3.85.
`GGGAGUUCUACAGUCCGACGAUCGCAAGGAAGGCCUCACACUGUCCAGCAUACUCCAGCCUGAAUUGCCUACUGGGUUCUCAGGGGGCAGACAGGUCCUGGCCGAAAGUCUUACCAUGGGGAUCGAUAGGGUGUGGAAUUCUCGGGUGCCAA`: “RBNS enrichment (R)” 0.35.
`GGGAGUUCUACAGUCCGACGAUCGCUAUCUUAUUUUUUUUCUUAUAGAAUUAAUCACAGGUCUUCUUAUCAUUGUGAAAACUCAUGUUGUAUUACUUUUUAUUAAUUGUAAUUUGGGAUACAUAUAAGUUAAUUGGAAUUCUCGGGUGCCAA` — result for “RBNS enrichment (R)”: 0.66.
For `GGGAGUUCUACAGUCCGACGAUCAGUGCAGUGGCUCAAUCUCAGCUCACCACAACCUCUGCCUCCUGGCUUCAAGCGAUUCUUCUGCCUCAGCCUCCCCGAAUAGUUGGGAUUACAGGCACCCACCACCACGCUGGAAUUCUCGGGUGCCAA`, “RBNS enrichment (R)” read 0.428.
`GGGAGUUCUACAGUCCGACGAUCUCAAGACUACAGAAAGGUUUGAAGUAGUGUGUGCAUGGCAUGCACGUAUGUAAGUAAUCUGGGGAAGAAGCAAAGAUCUGUUUCAUUCUUAGCCUCAGGCCUCAUGAGGGUGGAAUUCUCGGGUGCCAA`: “RBNS enrichment (R)” 0.81.
`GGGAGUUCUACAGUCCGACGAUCGGCAGCUUUGACCACUAUGCAACGUACUACCGCUCCCCUCUCCUCCGCCACCCCCGCCGUGGGGCUCCGGAGGGGACCCAGCUCCUCUGAGCCAUACCGACCAUCGUCCAUGGAAUUCUCGGGUGCCAA` — result for “RBNS enrichment (R)”: 0.304.
`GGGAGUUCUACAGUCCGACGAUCCUGUGAGCCUGGUCCUUCUAGCAACCCUCAGUUAAGAUCCUGAGGGACAGGUGCAGCAGCAGCUGGCUGGAGUGGAUCAGGACUCCUGUGACUCGUGGGGCUCGGGGGAGUGGAAUUCUCGGGUGCCAA`: “RBNS enrichment (R)” 0.529.
Under “RBNS enrichment (R)”, `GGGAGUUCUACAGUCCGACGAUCAGCUUGUGGGGGUGGGUGGGCAGGUUCUAGGGCUGGUCAUCUGCUGCCCUGUGCAUGAGGUCCCCUGAAGCCGCAAUACAUGACCACCCUUCUACUACUUGCUAUUACCUUGGAAUUCUCGGGUGCCAA` is recorded as 2.64.
For `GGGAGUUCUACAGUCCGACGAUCCGAAGUUUGACACCUAUAUCCCCAUGUUUUGUGACUACAUCCCGUAGUGUCCUGCCUAUUCCUUUCUGGCUACCUAAACGGUUCUCACUCAGGUCCUCUGGAAUAUUCUCUGGAAUUCUCGGGUGCCAA`, “RBNS enrichment (R)” read 0.299.
`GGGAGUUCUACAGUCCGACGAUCAGCAGUAAGUAGCACACCCAUCACUUAGACAAAUACCCAAGGGAGUUCUGCUCACCGAUAUUUGCCCGGCCCCUGGAAGAGGAAACCUUUCGAAAGCUAAUAUCCCAGAAUGGAAUUCUCGGGUGCCAA` — result for “RBNS enrichment (R)”: 0.23.

For quick reference, copied from above (series 2):
`GGATTACA` has an E-score of 0.15.
The E-score of `ATAACAGA` is reported as 0.309.
`GCAACCCC` gave an E-score of -0.269.
The E-score of `AAAGTGTG` is reported as 0.0386.
`AGACTTCG` gave an E-score of -0.0834.
For `AAAATCTG`, the E-score was 0.0981.
`AATAAGAA` gave an E-score of 0.296.
For `ATCAAAAC`, the E-score was 0.19.
`TAAATCGA` gave an E-score of 0.209.
